Results from different studies.
Each numbered part is a random draw from the data of one study; scales do not carry over between parts. Several values in a cell are separate wells, animals, samples, runs or records.
Chain of UniProt Q13177 (whole entry, looked up): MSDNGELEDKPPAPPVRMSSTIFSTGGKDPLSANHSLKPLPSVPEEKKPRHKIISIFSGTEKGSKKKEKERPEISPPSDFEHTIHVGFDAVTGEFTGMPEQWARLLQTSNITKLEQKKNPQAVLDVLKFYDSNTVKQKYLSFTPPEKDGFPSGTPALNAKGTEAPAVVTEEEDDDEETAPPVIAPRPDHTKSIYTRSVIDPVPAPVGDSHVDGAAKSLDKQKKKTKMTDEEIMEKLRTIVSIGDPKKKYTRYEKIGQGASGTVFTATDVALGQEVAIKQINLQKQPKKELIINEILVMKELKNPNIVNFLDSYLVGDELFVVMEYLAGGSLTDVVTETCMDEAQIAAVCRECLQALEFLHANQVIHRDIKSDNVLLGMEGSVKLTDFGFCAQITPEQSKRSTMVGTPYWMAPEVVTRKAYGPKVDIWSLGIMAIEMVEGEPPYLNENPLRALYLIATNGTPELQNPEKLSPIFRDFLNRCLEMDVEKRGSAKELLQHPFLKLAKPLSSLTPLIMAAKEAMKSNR
Chain of UniProt Q9NRM7 (whole entry, looked up): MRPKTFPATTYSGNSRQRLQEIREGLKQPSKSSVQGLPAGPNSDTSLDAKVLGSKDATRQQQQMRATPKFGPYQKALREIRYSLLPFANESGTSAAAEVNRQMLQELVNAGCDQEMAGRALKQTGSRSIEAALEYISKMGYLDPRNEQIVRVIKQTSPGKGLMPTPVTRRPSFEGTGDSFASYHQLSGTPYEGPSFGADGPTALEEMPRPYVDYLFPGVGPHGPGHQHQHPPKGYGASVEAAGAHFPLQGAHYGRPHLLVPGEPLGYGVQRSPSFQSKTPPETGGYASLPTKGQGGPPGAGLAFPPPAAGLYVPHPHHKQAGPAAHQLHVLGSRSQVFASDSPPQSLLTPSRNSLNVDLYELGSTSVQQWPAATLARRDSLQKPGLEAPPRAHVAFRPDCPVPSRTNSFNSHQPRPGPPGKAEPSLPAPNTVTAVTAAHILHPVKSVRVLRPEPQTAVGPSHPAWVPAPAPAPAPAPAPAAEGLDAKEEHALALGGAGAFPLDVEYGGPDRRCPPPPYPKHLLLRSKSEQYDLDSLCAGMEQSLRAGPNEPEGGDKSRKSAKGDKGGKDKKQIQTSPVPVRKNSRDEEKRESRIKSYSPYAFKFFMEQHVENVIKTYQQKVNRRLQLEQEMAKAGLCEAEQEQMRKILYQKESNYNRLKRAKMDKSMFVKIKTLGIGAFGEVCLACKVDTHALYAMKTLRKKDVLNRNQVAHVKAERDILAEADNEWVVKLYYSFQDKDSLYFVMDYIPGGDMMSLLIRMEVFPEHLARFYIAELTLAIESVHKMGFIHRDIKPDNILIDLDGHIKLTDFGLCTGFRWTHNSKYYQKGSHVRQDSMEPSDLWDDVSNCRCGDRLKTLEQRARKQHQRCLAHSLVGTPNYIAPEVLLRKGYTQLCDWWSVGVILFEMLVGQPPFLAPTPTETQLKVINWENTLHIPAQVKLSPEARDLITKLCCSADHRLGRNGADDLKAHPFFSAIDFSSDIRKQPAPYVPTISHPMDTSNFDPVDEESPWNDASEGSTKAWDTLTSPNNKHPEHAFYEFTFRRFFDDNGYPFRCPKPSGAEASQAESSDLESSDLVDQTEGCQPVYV

Block 1 — read-out: cell-free assay; technique: competition with immobilised ligand; tested at: 1 µM
SMILES: O=C(Nc1cccnn1)N1CCC(=Cc2cccc(Oc3ccc(C(F)(F)F)cn3)c2)CC1
The remaining binding was 83% (Serine/threonine-protein kinase PAK 2 (PAK2, Homo sapiens, UniProt Q13177)).
For Tyrosine-protein kinase Yes (YES1, Homo sapiens, UniProt P07947): remaining binding read 100%.
It gave 100% for remaining binding (Dual specificity tyrosine-phosphorylation-regulated kinase 1A (DYRK1A, Homo sapiens, UniProt Q13627)).
Serine/threonine-protein kinase LATS2 (LATS2, Homo sapiens, UniProt Q9NRM7) — remaining binding: 84%.
The remaining binding was 81% (Phosphatidylinositol 4,5-bisphosphate 3-kinase catalytic subunit delta isoform (PIK3CD, Homo sapiens, UniProt O00329)).
It gave 63% for remaining binding (RAF proto-oncogene serine/threonine-protein kinase (RAF1, Homo sapiens, UniProt P04049)).
For Tyrosine-protein kinase ABL1, phosphorylated (ABL1, Homo sapiens, UniProt P00519, Q252H): remaining binding read 99%.
The remaining binding was 74% (Mitogen-activated protein kinase kinase kinase 11 (MAP3K11, Homo sapiens, UniProt Q16584)).
It gave 95% for remaining binding (Dual specificity protein kinase CLK1 (CLK1, Homo sapiens, UniProt P49759)).

Block 2 — read-out: enzyme activity; mode: inhibitor; tested at: 77 µM; relative to: untreated
Target: DNA polymerase theta, ATPase domain (POLQ, Homo sapiens, UniProt O75417)
Chain of UniProt O75417 (whole entry, unmodified, looked up): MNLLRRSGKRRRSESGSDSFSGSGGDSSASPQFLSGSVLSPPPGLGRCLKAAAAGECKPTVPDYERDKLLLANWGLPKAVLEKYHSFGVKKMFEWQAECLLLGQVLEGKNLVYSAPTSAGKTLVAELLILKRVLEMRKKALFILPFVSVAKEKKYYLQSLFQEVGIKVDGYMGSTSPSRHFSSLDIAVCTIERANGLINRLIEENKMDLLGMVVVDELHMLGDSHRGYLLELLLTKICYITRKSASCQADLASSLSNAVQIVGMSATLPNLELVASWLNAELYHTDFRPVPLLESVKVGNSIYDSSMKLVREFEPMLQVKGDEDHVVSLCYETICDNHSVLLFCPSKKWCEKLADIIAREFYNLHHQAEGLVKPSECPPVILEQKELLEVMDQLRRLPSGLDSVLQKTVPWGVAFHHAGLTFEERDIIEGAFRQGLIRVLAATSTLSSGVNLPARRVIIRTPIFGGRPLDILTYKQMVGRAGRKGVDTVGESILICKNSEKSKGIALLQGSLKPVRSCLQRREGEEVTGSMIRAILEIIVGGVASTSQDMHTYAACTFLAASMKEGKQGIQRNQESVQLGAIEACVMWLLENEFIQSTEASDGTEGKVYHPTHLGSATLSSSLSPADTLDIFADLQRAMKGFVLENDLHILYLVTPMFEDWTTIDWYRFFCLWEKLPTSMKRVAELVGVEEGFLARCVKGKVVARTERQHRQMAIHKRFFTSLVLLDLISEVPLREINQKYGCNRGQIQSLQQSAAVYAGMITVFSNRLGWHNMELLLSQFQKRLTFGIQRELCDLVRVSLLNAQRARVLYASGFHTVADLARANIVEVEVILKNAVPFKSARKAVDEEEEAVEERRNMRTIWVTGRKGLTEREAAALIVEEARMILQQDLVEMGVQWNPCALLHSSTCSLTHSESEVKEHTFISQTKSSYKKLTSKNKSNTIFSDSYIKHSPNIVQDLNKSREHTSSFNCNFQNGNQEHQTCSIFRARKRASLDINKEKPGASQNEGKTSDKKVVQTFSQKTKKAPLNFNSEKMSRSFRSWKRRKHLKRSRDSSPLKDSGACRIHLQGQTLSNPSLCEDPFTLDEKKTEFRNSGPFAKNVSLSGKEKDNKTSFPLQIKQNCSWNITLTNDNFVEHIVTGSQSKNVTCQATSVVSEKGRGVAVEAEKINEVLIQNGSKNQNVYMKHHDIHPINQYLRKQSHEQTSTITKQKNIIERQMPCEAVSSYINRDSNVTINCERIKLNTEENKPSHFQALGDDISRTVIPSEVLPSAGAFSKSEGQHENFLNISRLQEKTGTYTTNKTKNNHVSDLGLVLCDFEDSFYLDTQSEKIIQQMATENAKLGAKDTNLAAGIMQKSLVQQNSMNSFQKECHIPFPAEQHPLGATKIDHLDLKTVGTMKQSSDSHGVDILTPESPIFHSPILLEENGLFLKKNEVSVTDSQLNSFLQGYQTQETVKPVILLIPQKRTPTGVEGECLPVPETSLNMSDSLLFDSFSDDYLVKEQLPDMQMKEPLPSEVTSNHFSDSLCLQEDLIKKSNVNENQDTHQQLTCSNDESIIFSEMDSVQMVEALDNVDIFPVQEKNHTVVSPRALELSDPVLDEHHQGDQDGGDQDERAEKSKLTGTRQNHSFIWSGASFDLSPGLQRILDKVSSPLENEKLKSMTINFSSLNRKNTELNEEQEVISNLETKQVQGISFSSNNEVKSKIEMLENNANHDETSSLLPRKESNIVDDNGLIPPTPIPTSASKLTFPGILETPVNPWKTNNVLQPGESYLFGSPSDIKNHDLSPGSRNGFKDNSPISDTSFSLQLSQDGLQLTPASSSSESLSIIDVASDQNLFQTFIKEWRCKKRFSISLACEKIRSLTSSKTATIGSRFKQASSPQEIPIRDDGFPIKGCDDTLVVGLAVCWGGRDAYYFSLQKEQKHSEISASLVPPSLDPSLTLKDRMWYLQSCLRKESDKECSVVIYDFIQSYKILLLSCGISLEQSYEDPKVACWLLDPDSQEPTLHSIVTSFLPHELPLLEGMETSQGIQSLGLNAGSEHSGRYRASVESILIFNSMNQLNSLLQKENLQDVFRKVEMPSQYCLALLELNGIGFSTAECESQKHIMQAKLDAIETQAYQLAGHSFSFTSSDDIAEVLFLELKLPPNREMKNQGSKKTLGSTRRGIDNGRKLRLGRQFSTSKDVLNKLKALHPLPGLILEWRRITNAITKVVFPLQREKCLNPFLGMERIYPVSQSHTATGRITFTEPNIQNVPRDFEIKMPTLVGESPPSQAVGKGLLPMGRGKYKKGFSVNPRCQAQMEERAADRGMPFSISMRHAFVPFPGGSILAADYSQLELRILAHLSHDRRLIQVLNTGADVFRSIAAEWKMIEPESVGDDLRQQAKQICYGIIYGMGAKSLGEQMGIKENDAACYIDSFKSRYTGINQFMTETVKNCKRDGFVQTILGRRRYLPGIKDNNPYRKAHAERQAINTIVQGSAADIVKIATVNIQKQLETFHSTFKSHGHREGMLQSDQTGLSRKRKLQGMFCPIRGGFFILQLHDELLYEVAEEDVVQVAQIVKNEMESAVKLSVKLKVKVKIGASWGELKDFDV
With CC(C)Oc1ccc2c(=O)c(-c3ccccc3)coc2c1 the remaining activity was 95.1%.
For Cc1nc(N=Nc2cc(S(=O)(=O)O)c3cc([N+](=O)[O-])cc(S(=O)(=O)O)c3c2)c(COP(=O)(O)O)c(C=O)c1O, the remaining activity was 61.1%.
For S=c1[nH]cnc2nc[nH]c12, the remaining activity was 99.6%.
CCCCC1C(=O)N(c2ccccc2)N(c2ccc(O)cc2)C1=O (stereo not shown) gave a remaining activity of 99.1%.
CCCCC[C@H](CC(=O)NO)C(=O)N[C@H](C(=O)N1CCC[C@H]1CO)C(C)C gave a remaining activity of 102%.
The remaining activity of NS(=O)(=O)c1cc(C(=O)O)cc(N2CCCC2)c1Oc1ccccc1 is reported as 99%.
The remaining activity of CN(c1ccccc1CNc1nc(Nc2ccc3c(c2)CC(=O)N3)ncc1C(F)(F)F)S(C)(=O)=O is reported as 104% and 109%.

Block 3 — cell line: A-375; tested at: 100 µM; time: 18 h
For Cc1cn[nH]c1, the viability was 90.3%.
With O=C(O)c1cc(-c2ccccc2)nc2ccccc12 the viability was 85.8%.
CC[C@@H]([C@H](C)O)n1ncn(-c2ccc(N3CCN(c4ccc(OC[C@@H]5CO[C@@](Cn6cncn6)(c6ccc(F)cc6F)C5)cc4)CC3)cc2)c1=O has a viability of 63.9%.
O=C(O)c1ccccc1O gave a viability of 105%.
COCCCOc1cc(C[C@@H](C[C@H](N)[C@@H](O)C[C@H](C(=O)NCC(C)(C)C(N)=O)C(C)C)C(C)C)ccc1OC has a viability of 81.3%.
With C[N+]1(C)[C@@H]2C[C@@H](OC(=O)C(O)(c3cccs3)c3cccs3)C[C@H]1[C@@H]1O[C@@H]12 the viability was 104%.
For C[N+]1(C)[C@@H]2CC[C@H]1C[C@@H](OC(=O)C(O)c1ccccc1)C2 (stereo partly shown), the viability was 89.7%.
NS(=O)(=O)c1cc2c(cc1Cl)NC(C(Cl)Cl)NS2(=O)=O (stereo not shown) gave a viability of 95.2%.
The viability of CCOC(=O)C1=C[C@@H](OC(CC)CC)[C@H](NC(C)=O)[C@@H](N)C1 is reported as 101%.
CN1C(=O)OC(C)(C)C1=O has a viability of 91.9%.
For O=[N+]([O-])c1cncn1CCN1CCOCC1, the viability was 97.8%.

Block 4 — read-out: enzyme activity; mode: inhibitor; tested at: 0.5 µM; relative to: control
Target: SRSF protein kinase 3 (SRPK3, Homo sapiens, UniProt Q9UPE1)
Chain of UniProt Q9UPE1 (whole entry, looked up): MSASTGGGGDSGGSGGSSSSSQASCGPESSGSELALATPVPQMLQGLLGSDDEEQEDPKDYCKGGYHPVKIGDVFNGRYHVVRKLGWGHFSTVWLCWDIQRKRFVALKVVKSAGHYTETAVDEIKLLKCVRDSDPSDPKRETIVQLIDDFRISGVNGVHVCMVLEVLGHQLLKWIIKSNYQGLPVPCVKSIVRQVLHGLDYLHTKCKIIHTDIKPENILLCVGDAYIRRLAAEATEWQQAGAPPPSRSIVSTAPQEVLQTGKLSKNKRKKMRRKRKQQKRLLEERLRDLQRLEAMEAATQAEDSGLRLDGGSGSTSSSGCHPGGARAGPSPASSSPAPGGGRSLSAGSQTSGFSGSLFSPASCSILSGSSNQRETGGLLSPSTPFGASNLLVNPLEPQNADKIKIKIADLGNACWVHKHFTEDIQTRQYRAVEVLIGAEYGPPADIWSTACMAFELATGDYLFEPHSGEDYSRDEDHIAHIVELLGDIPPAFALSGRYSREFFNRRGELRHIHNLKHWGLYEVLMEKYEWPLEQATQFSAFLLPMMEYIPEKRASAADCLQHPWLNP
With Cc1cccc(-c2[nH]c(C(C)(C)C)nc2-c2ccc3c(c2)OCO3)n1 the remaining activity was 95.1%.
For Nc1ccc2ncnc(NCCc3ccc(Oc4ccccc4)cc3)c2c1, the remaining activity was 96.6%.
With Nc1[nH]nc2nc3ccccc3nc12 the remaining activity was 95.6%.
With COc1cc2nccc(Oc3ccc(NC(=S)NC(=O)c4ccccc4C)cc3)c2cc1OC the remaining activity was 95.9%.
O=C1NC(=O)c2cc(Nc3ccc(F)cc3)c(Nc3ccc(F)cc3)cc21 gave a remaining activity of 98%.
Nc1ncnc2n[nH]c(Nc3ccc(F)cc3)c12 has a remaining activity of 91.5%.
Cc1ccc(NC(=O)c2ccc(CN3CCN(C)CC3)cc2)cc1Nc1nc(-c2cccnc2)cs1 has a remaining activity of 102%.
N#CCCc1ccc2c(c1)-c1[nH]c3ccc([N+](=O)[O-])cc3c1CC(=O)N2 has a remaining activity of 94.6%.
NCCNc1ncc(C(N)=O)c(Nc2cccc(C(F)(F)F)c2)n1 has a remaining activity of 87.1%.
O=c1c2ccccc2[nH]c(=S)n1CCN1CCC(=C(c2ccc(F)cc2)c2ccc(F)cc2)CC1 has a remaining activity of 102%.
O=C1NC(=O)C(c2cn(CCCO)c3ncccc23)=C1c1cnccn1 gave a remaining activity of 91.2%.
For O=C(O)c1ccc2c3c1cccc3c(=O)n1c3ccccc3nc21, the remaining activity was 82.8%.
With COc1ccc(OC)c2c(=S)c3ccccc3[nH]c12 the remaining activity was 96.8%.
O=C(CCCc1ccc(-c2ccccc2F)cc1)Nc1ccc(O)cc1 has a remaining activity of 93.7%.
O=C(Nc1cccc(Nc2cc(Nc3cccc(C(F)(F)F)c3)ncn2)c1)C1CC1 has a remaining activity of 103%.
The remaining activity of N#CC(C#N)=C(N)/C(C#N)=C/c1ccc(O)cc1 is reported as 96.4%.
